{"data": "Literature values that unrelated publications cite", "note": "Lines come from different studies, so protocols differ. ± marks the error that the study gave."}
{"SMILES": "Nc1c(C(=O)O)ncn1C1OC(COP(=O)(O)O)C(O)C1O (stereo not shown)", "target": "Escherichia coli PurE", "quantity": "kcat", "result": "16 s⁻¹"}
{"SMILES": "CN(C)c1ccc(/C=C/C(=O)c2ccc(OC(=O)N3CCCC3)cc2O)cc1", "target": "amyloid beta 1-42", "assay": "self-induced aggregation", "setting": "25 µM", "quantity": "inhibition", "result": "89.5%"}
{"SMILES": "COc1cc(O)c2c(c1)/C=C/C[C@H](O)[C@H](O)C(=O)/C=C\\C[C@H](C)OC2=O", "target": "STK16", "setting": "concentration not given", "scale": "relative to: control", "quantity": "remaining binding", "result": "100%"}
{"SMILES": "[2H]C([2H])([2H])C([2H])([2H])C([2H])([2H])OC(C(=O)OC1CCNCC1)(c1ccccc1)c1ccccc1", "target": "CYP3A, human", "assay": "time-dependent inhibitor", "system": "human liver microsomes", "setting": "added: midazolam", "quantity": "KI", "result": "1.02 µg/mL"}
{"SMILES": "CC(C)[C@H](NC(=O)[C@H](CO)NC(=O)[C@@H](N)CC(=O)O)C(=O)N[C@H]1CSC(=O)[C@H](Cc2ccccc2)NC(=O)[C@H](Cc2ccc(O)cc2)NC(=O)[C@H](CO)NC(=O)[C@H](C)NC1=O", "target": "AgrC-II Staphylococcus epidermidis", "assay": "agr signalling", "setting": "concentration not given", "quantity": "activity", "result": "inhibited"}
{"SMILES": "CSCC[C@@H]1NC(=O)[C@@H]2CSSC[C@H](NC(=O)[C@H](CO)NC(=O)[C@H](C)N)C(=O)N[C@@H](CCCNC(=N)N)C(=O)N[C@@H]([C@@H](C)O)C(=O)N3CCC[C@H]3C(=O)N[C@@H](CCCCN)C(=O)N[C@@H](CC(=O)O)C(=O)N[C@H]3CSSC[C@H](NC(=O)[C@H](CCCCN)NC(=O)[C@H](CCCNC(=N)N)NC(=O)[C@H](CC(N)=O)NC1=O)C(=O)N[C@@H](CCCCN)C(=O)N[C@H]1CSSC[C@H](NC(=O)[C@@H]4CCCN4C(=O)[C@H](CC(=O)O)NC(=O)[C@H](C)NC3=O)C(=O)N[C@@H](C)C(=O)N[C@@H](CCCCN)C(=O)N[C@@H](CCC(=O)O)C(=O)N[C@@H]([C@@H](C)O)C(=O)NCC(=O)N[C@@H](CSSC[C@@H](C(N)=O)NC(=O)[C@H](CCCNC(=N)N)NC(=O)[C@H](CC(N)=O)NC1=O)C(=O)N1CCC[C@H]1C(=O)N[C@@H](Cc1ccc(O)cc1)C(=O)NCC(=O)N[C@@H](CCCCN)C(=O)N2", "target": "Kv1.3 potassium channel", "scale": "relative to: Kv1.3 over Kv1.1", "quantity": "selectivity ratio", "result": "2000 fold"}
{"SMILES": "O=[N+]([O-])c1ccc(-c2cc(C3CC4CCC3N4)cnc2F)cc1 (racemic)", "target": "human α4β2 nicotinic receptor", "assay": "antagonist", "scale": "relative to: dihydro-β-erythroidine", "quantity": "relative antagonist potency", "result": "17 fold"}
{"SMILES": "CC[C@H](C)[C@@H]1NC(=O)[C@H](COP(=O)(O)O)NC(=O)[C@H](CCSC)NC(=O)CSC[C@@H](C(N)=O)NC(=O)[C@H](C)NC(=O)[C@H](C(C)C)NC(=O)[C@H](Cc2ccc(OP(=O)(O)O)cc2)NC1=O", "target": "PP2A", "assay": "enzyme activity", "setting": "concentration not given", "quantity": "activity", "result": "inactive"}
{"SMILES": "N=C(N)NCCC[C@H](NC(=O)[C@@H]1CCCN1C(=O)[C@@H]1CSSC[C@H](N)C(=O)N[C@@H](Cc2ccc(O)cc2)C(=O)N[C@@H](Cc2ccccc2)C(=O)N[C@@H](CCC(N)=O)C(=O)N[C@@H](CC(N)=O)C(=O)N1)C(=O)NCC(N)=O", "target": "oxytocin receptor", "assay": "calcium mobilization", "scale": "relative to: human over macaque", "quantity": "species selectivity ratio", "result": "~10 fold"}
{"SMILES": "COc1ccc2sc3c(c2c1)SCCNC3=O", "target": "protein kinase D isoforms", "assay": "inhibitor", "scale": "relative to: compound over CID755673", "quantity": "potency ratio", "result": "≥ 2 fold"}
{"SMILES": "CSC[C@H]1CN(Cc2c[nH]c3c(N)ncnc23)C[C@@H]1O", "target": "MTA/SAH nucleosidase Escherichia coli", "assay": "inhibitor", "quantity": "Ki", "result": "0.002 nM"}
{"SMILES": "CCCCCCCC/C=C\\CCCCCCCCOP(O)(O)=S", "target": "LPA2 receptor", "assay": "agonist", "quantity": "EC50", "result": "124 ± 15 nM"}
{"SMILES": "CC(=O)N[C@H]1[C@@H](OC[C@H](NC(=O)CNC(=O)[C@@H]2CCCN2C(=O)[C@H](C)NC(=O)[C@@H]2CCCN2C(=O)[C@@H](N)CCCNC(=N)N)C(=O)N[C@H](C(=O)N[C@@H](C)C(=O)N2CCC[C@H]2C(=O)N2CCC[C@H]2C(=O)N[C@@H](C)C(=O)N[C@@H](Cc2c[nH]cn2)C(=O)NCC(=O)O)[C@@H](C)O)O[C@H](CO)[C@H](O)[C@@H]1O", "target": "16 A monoclonal antibody", "assay": "SPR", "quantity": "kon", "result": "33500 M⁻¹ s⁻¹"}
{"note": "For quick reference, copied from above:"}
{"SMILES": "CC[C@H](C)[C@@H]1NC(=O)[C@H](COP(=O)(O)O)NC(=O)[C@H](CCSC)NC(=O)CSC[C@@H](C(N)=O)NC(=O)[C@H](C)NC(=O)[C@H](C(C)C)NC(=O)[C@H](Cc2ccc(OP(=O)(O)O)cc2)NC1=O", "target": "PP2A", "assay": "enzyme activity", "setting": "concentration not given", "quantity": "activity", "result": "inactive"}
